Published values gathered from unrelated publications.
Each line is one published result; not all experiments were run side by side. Numbers after ± are the reported error.
Chain of UniProt P31323 (whole entry, looked up): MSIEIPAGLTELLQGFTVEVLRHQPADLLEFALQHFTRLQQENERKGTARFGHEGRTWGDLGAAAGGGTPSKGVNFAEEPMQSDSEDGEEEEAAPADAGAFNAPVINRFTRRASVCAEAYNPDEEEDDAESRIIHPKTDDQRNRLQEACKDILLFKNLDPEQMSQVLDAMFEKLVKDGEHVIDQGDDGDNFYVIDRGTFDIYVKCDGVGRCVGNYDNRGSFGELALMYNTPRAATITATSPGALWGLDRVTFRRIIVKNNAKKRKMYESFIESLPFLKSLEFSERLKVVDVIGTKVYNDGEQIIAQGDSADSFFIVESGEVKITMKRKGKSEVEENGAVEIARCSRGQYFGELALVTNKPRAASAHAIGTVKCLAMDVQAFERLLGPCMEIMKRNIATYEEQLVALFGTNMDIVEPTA
Chain of UniProt P04201 (whole entry, looked up): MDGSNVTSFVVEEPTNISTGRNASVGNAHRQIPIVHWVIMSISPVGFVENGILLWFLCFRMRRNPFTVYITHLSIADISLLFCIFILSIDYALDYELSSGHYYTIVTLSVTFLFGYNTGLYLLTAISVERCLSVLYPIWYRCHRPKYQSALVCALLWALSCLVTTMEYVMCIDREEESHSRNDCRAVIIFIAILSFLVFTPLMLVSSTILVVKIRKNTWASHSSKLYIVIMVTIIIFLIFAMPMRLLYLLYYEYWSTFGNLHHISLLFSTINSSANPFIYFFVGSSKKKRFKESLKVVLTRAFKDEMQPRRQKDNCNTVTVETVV
Chain of UniProt Q9BXA5 (whole entry, looked up): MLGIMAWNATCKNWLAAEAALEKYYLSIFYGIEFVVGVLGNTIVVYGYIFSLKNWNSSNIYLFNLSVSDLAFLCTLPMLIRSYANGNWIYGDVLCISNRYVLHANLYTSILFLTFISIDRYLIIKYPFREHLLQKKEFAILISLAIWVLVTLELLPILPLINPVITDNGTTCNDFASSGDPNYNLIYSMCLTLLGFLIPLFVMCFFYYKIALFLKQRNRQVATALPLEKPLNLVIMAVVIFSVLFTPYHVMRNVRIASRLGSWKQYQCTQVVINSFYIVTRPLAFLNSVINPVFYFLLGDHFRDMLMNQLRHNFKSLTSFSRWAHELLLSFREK
Chain of UniProt P97612 (whole entry, looked up): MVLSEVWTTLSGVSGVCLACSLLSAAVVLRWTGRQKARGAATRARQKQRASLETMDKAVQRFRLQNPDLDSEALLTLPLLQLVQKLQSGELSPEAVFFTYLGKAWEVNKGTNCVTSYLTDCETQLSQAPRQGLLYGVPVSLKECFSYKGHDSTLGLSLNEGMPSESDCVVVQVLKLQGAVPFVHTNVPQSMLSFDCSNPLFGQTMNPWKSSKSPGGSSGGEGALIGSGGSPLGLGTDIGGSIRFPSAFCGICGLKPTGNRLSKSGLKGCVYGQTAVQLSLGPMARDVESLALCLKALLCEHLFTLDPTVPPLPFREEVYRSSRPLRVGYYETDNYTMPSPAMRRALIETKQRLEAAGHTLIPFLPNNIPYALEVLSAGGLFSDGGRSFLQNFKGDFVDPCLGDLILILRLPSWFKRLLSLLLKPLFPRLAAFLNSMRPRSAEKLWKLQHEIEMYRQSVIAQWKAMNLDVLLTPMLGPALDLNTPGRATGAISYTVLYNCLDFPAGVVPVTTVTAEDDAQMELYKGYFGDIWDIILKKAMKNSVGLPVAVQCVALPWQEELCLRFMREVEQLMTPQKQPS
Chain of UniProt Q92918 (whole entry, looked up): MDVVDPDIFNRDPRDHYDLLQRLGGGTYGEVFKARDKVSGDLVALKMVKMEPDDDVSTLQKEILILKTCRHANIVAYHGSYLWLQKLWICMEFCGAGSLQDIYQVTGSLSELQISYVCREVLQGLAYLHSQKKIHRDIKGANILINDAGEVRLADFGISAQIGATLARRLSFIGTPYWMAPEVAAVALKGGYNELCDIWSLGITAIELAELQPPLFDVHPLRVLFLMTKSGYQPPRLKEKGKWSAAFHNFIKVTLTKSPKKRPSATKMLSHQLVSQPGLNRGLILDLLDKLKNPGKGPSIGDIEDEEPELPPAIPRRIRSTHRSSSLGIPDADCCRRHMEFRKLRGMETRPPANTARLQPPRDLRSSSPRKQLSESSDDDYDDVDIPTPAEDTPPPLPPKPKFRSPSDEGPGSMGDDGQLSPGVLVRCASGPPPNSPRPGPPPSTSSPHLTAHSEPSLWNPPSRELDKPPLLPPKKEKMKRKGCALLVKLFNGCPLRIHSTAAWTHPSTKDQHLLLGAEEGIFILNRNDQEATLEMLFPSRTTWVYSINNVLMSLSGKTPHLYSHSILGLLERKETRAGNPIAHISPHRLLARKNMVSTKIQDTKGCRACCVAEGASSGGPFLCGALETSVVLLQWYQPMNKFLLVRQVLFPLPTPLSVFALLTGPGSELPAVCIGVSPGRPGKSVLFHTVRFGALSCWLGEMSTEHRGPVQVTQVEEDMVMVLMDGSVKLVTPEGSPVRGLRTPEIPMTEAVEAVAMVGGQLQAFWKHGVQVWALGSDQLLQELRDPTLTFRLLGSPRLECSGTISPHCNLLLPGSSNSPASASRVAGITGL
Chain of UniProt Q13557 (whole entry, looked up): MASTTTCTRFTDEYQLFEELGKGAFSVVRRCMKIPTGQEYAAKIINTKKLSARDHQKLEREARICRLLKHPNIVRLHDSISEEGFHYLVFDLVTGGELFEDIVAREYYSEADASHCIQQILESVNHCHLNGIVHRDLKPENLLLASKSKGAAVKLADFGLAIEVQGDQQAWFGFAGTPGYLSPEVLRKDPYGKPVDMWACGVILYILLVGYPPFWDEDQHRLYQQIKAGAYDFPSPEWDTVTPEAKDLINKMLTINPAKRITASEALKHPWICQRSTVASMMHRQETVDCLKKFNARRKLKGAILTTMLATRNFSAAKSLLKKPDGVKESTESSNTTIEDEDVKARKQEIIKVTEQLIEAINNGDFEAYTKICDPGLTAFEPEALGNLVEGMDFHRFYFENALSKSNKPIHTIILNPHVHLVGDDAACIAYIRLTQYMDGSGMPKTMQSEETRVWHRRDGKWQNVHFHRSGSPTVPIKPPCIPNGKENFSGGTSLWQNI
Chain of UniProt Q9P289 (whole entry, looked up): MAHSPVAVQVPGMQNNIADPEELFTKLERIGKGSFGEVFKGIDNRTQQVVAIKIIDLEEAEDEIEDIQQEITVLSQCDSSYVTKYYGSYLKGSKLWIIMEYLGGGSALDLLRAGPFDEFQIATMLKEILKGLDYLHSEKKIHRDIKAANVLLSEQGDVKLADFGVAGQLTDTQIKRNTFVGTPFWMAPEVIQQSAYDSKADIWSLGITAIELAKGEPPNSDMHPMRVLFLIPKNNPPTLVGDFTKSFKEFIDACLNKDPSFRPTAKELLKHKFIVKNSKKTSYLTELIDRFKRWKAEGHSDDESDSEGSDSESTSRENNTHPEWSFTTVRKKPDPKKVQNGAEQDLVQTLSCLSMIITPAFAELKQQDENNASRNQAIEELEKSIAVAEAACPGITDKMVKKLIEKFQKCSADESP

CCCCN1CCC(COC(=O)c2ccc(N)c(O[11CH3])c2)CC1 — binding potential BPND (5-HT4 receptor binding, PET; rhesus monkey (Macaca mulatta), brain thalamus; dose not given, baseline scan, unit not given; baseline: cerebellum reference region): 0.31 ± 0.07
C[C@H]1CN(c2n[nH]c3nc(N[C@H]4CC[C@H](NS(=O)(=O)CCC(F)(F)F)CC4)ncc23)CCO1 — relative abundance (PRKAR2B (Homo sapiens, UniProt P31323); inhibitor, Kinobeads competition profiling; 0.8 µM; baseline: vehicle): 1.13
CC[C@H](C)[C@H](NC(=O)CNC(=O)[C@@H](N)CCCCN)C(=O)N[C@@H](CC(C)C)C(=O)N[C@@H](CCCCN)C(=O)N[C@@H](CCCNC(=N)N)C(=O)N[C@@H](CCC(=O)O)C(=O)N[C@@H](CCCCN)C(=O)N[C@@H](CCCNC(=N)N)C(=O)N[C@@H](CC(C)C)C(=O)N[C@@H](CCCNC(=N)N)C(=O)N[C@@H](CCCNC(=N)N)C(=O)N[C@@H](CCCCN)C(=O)N[C@@H](CC(N)=O)C(=O)N[C@H](C(=O)N[C@@H](Cc1c[nH]cn1)C(=O)N[C@@H](Cc1c[nH]c2ccccc12)C(=O)N1CCC[C@H]1C(=O)N[C@@H](CCC(=O)O)C(=O)N[C@@H](CCC(=O)O)C(=O)NCC(=O)N[C@@H](CCCCN)C(=O)N[C@@H](CC(C)C)C(=O)N[C@@H](CCCNC(=N)N)C(=O)N[C@@H](CCC(=O)O)C(=O)N[C@@H](Cc1ccc(O)cc1)C(=O)N[C@@H](Cc1ccccc1)C(=O)N[C@@H](Cc1ccc(O)cc1)C(=O)N[C@@H](Cc1ccccc1)C(=O)N[C@@H](CCC(=O)O)C(=O)N[C@@H](CC(C)C)C(=O)N[C@@H](CC(=O)O)C(=O)N[C@@H](CCC(=O)O)C(=O)N[C@@H](C)C(=O)N[C@@H](CCC(=O)O)C(=O)N[C@@H](CCCNC(=N)N)C(=O)N[C@H](C(=O)N[C@@H](CC(N)=O)C(=O)N[C@H](C(=O)O)C(C)C)C(C)C)C(C)C — log2 fold change (HeLa and HEK-293T cells; phosphatase bead binding, competitive inhibitor, PIB pulldown iBAQ LC-MS/MS, refers to: PPP5C; concentration not given; baseline: untreated control): 0.0656
O=C(Nc1cnccc1Cl)N1CCN(Cc2ccc3c(c2)OC(F)(F)O3)CC1 — inhibition (Faah (Rattus norvegicus, UniProt P97612); probe labelling, inhibitor, competitive ABPP with azido-FP probe; rat brain membrane fraction; 10 µM): 99.2%
COc1ccc(N2C(=O)N(c3c(C)cccc3Cl)Cc3cnc(Nc4ccc(C5CCN(C)CC5)cc4OC)nc32)nc1 — inhibition (STK26 (Homo sapiens, UniProt Q9P289); kinase activity, inhibitor; 0.5 µM, MST4): 14%
CC[C@H](C)[C@H](NC(=O)CNC(=O)[C@@H](N)CCCCN)C(=O)N[C@@H](CC(C)C)C(=O)N[C@@H](CCCCN)C(=O)N[C@@H](CCCNC(=N)N)C(=O)N[C@@H](CCC(=O)O)C(=O)N[C@@H](CCCCN)C(=O)N[C@@H](CCCNC(=N)N)C(=O)N[C@@H](CC(C)C)C(=O)N[C@@H](CCCNC(=N)N)C(=O)N[C@@H](CCCNC(=N)N)C(=O)N[C@@H](CCCCN)C(=O)N[C@@H](CC(N)=O)C(=O)N[C@H](C(=O)N[C@@H](Cc1c[nH]cn1)C(=O)N[C@@H](Cc1c[nH]c2ccccc12)C(=O)N1CCC[C@H]1C(=O)N[C@@H](CCC(=O)O)C(=O)N[C@@H](CCC(=O)O)C(=O)NCC(=O)N[C@@H](CCCCN)C(=O)N[C@@H](CC(C)C)C(=O)N[C@@H](CCCNC(=N)N)C(=O)N[C@@H](CCC(=O)O)C(=O)N[C@@H](Cc1ccccc1)C(=O)N[C@@H](Cc1ccccc1)C(=O)N[C@@H](Cc1ccccc1)C(=O)N[C@@H](Cc1ccccc1)C(=O)N[C@@H](CCC(=O)O)C(=O)N[C@@H](CC(C)C)C(=O)N[C@@H](CC(=O)O)C(=O)N[C@@H](CCC(=O)O)C(=O)N[C@@H](C)C(=O)N[C@@H](CCC(=O)O)C(=O)N[C@@H](CCCNC(=N)N)C(=O)N[C@H](C(=O)N[C@@H](CC(N)=O)C(=O)N[C@H](C(=O)O)C(C)C)C(C)C)C(C)C — log2 fold change (HeLa and HEK-293T cells; phosphatase bead binding, competitive inhibitor, PIB pulldown iBAQ LC-MS/MS, refers to: MOB4; concentration not given; baseline: untreated control): -0.41
O=C(Nc1cccnn1)N1CCC(=Cc2cccc(Oc3ccc(C(F)(F)F)cn3)c2)CC1 — inhibition (CAMK2D (Homo sapiens, UniProt Q13557); enzyme activity, inhibitor; 50 µM, together with: autocamtide-2): 22%
Oc1ccc2c3c1O[C@H]1[C@@H](O)CC[C@@]4(O)[C@@H](C2)N(CC2CCC2)CC[C@]314 — log2 fold change (Proto-oncogene Mas (Homo sapiens, UniProt P04201); β-arrestin recruitment, TANGO luminescence, refers to: MAS1; concentration not given; baseline: basal luminescence): -0.011
CCCCCCCC[C@H]1O[C@H]1C/C=C/C=C/[C@H](O)CC(=O)NC1=C[C@](C)(CC)OC1=O — binding stoichiometry (Na(+)-translocating NADH-quinone reductase subunit B, whole Na+-NQR complex (nqrB, Vibrio cholerae serotype O1, UniProt Q9KPS2); ITC; concentration not given, 20 °C, wild type, together with: ubiquinone-2 50 µM): 0.54 ± 0.01
[2H]c1c([2H])c([C@]2([2H])CCCN2C(=O)C(C)(C)Oc2ccc3cn[nH]c3c2)c([2H])c([2H])c1C([2H])([2H])[2H] — remaining binding (MAP4K1 (Homo sapiens, UniProt Q92918); KINOMEscan; 1 µM; baseline: DMSO control): 95%
CN1CCN(c2cc(-c3ccncc3)c(-c3ccc4ccccc4c3)nn2)CC1 — activation (SUCNR1 (Homo sapiens, UniProt Q9BXA5); agonist, FLIPR; 12.5 µM): 1.6%

Some of these lines once more:
C[C@H]1CN(c2n[nH]c3nc(N[C@H]4CC[C@H](NS(=O)(=O)CCC(F)(F)F)CC4)ncc23)CCO1 — relative abundance (PRKAR2B (Homo sapiens, UniProt P31323); inhibitor, Kinobeads competition profiling; 0.8 µM; baseline: vehicle): 1.13
